Experimental data collected from several papers.
Parts stem from different laboratories: compare values within a part only.

Sample 1
Target: RNA binding protein fox-1 homolog 2, RRM domain, GST-SBP tag (RBFOX2, Homo sapiens, UniProt O43251-10, residues 100-194)
Technique: RNA Bind-n-Seq
Form: RNA
Medium: in vitro
Concentration: 365 nM
Notes: natural RNA segment, single round, ends assumed
Reference: no-protein control
Direction: higher = stronger binding
All sequences stand within: GGGAGUUCUACAGUCCGACGAUC … UGGAAUUCUCGGGUGCCAA
Construct (chain): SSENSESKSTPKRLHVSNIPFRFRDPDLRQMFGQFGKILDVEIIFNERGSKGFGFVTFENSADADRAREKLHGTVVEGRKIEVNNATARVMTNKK
Oligonucleotide	RBNS enrichment (R)
UUCUUAACUGACUAGAAAGAGCCACCAGCAUUACUCUGUGCCUUUUGGACAUCAGUUUGUGUGUUCUGUAGGAAUUGUGUGCAUUCCAUUCACACAGUAUUUCUUUAGGA	0.431
AUGCUUUUAUCUUGCUAUAGAAUAAACACAUUUCAGUAAAAACUGUGGACUGUAUUUUGAUGCAACAACAAAGAAACUGUUCACUUUUCAAAUAAAAUGAUAUGUCAGAU	0.396
UCUGGCUAUCACCACUGGCCUCUGGGGUCUUCAUAUCUUGCCAUCUCAUCCAGGGUUCCAUGAAAGUUACCCAGGGUCCUCAUGUCCUUCCUUAGAGCCUGAGUGGUGUG	0.318
AGUCAGGAGAAAACCACCUUCAUAAACUGCUCUGUGCAAAGAGGAAUAAAACAUUUUUUCCAAACUGCCUUUGUGUGAUGUUUCUGUUUCUCUUCCUCUCUUUUUGGCAG	0.289
UACUUCAUUUGGUGCUGGUCUAUUUUGAUUUUGGGGGGUAAUCAGCAUUAUUCUUCAGAAGGGGACCUGUUUUCUUCAAGGGAAGAAACACUCUUAUUCCCAAACUACAG	0.231
GUAAGCCUGAAGUGAGGAUACUGCAAUUUUCGGAGAAAAGAACAGCAGCUCUUUAAGUGUUUGCAUUUUCUAUUUGGGGGGCAGGGAACUGUCAUUCAUUUUGCACAAUU	0.879
UGUUGUCCACUGAUUAAUCAGCCUAUGUGCCUGACACUGGUCUUGCAGUACAACUGGAAGCCAAAACAAGGUGGAAGAUGUCCUGAAUUAAGAUGUUUUCACCACAUUGU	0.227
CAGGCCCAGCAGCCAUGCCCCGCCAAGAAGCAUGCUGGGAGUAAGGUCUUUGCCAUCAAGGGUAUUUGGGUGACAUUUCAAAAUUUGUCCUCAUUAAAUGGAUGGGUGGG	0.417

Sample 2
Target: Histone acetyltransferase KAT6A, winged helix 2, GST fusion (KAT6A, Homo sapiens, UniProt Q92794, residues 85-181)
Technique: protein binding microarray
Form: double-stranded DNA, one strand shown
Medium: in vitro
Concentration: not given
Notes: 8-mer, flanks averaged, mean of 2 arrays, mostly near background
Reference: not given
Direction: higher = stronger binding
Residues (chain): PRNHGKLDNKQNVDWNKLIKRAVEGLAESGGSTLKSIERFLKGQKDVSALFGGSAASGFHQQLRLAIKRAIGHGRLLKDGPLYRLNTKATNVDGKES
Oligonucleotide	E-score
CAAGTAGG	-0.0863
AGCACCAG	0.074
ATTCATCA	-0.0224
GACCGTCA	-0.0757
CCGCCCTC	0.195
AGTTGGCG	0.0578
GAGAGTCA	-0.157
CATTGGGC	-0.0614
CTAGCTTA	-0.135
CATGATAA	-0.0399
GCAGCACC	0.0831
GGGCTTGA	-0.0144
GGCTACCA	0.118
CTCCAAAG	0.109
ACGACTGG	-0.0323
AGCATCCT	-0.0725
CTGATGCA	0.101
ACCCGCCC	0.271
ACAATGGC	-0.116
ACCAGCAG	-0.0139
GAACGCCA	0.0598
AAGACTCC	-0.142
ACTGTAGA	-0.0583
GAAAGCGA	0.133
AGGCGCGA	0.197

Sample 3
Target: Ras GTPase-activating protein-binding protein 1, C-terminal RGG region (G3BP1, Homo sapiens, UniProt Q13283)
Sequence of UniProt Q13283 (whole entry, looked up): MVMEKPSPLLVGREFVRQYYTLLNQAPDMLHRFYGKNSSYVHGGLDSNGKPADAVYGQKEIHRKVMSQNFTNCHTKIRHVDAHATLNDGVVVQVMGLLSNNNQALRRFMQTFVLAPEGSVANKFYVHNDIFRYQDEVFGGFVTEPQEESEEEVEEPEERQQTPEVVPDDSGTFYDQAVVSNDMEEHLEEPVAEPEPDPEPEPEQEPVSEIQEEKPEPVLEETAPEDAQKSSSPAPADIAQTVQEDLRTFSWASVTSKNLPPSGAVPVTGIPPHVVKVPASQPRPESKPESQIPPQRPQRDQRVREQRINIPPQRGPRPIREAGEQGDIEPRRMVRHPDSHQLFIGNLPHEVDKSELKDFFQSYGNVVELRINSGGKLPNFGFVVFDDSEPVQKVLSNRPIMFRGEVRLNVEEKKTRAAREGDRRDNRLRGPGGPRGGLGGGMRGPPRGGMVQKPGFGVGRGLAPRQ
Technique: RNA Bind-n-Seq
Form: RNA
Medium: in vitro
Concentration: 1 µM
Notes: whole 134-nt RNA, ends assumed
With: 150 mM KCl
Reference: input library
Direction: higher = stronger binding
All sequences stand within: GGGAGUUCUACAGUCCGACGAUC … UGGAAUUCUCGGGUGUCAAGG
Oligonucleotide	log2 enrichment
GUCCUGUGCUACACAUCGUAUGUACCGAAUCAAAUUUAAACCCCCCCAAACCCCCAAAAAAGUAUUAUGUUACGCCGUUCGGAUCUGCAC	-0.779
AGUCCUGUGCUACACAUCGUAUGUACCGAAUCGGGAAAGGGUUUUUGGGUUUUUGGGAAAGUAUUAUGUUACGCCGUUCGGAUCUGCACU	0.079
UCAAGUCCUGUGCUACACAUCGUAUGUACCGAAUCGGGGCCCGGGCCCGGCCCGGAAAGUAUUAUGUUACGCCGUUCGGAUCUGCACUUC	-1.7
CAAGUCCUGUGCUACACAUCGUAUGUACCGAAUCGGGUUUGGGUUUGGGAAAGGGAAAGUAUUAUGUUACGCCGUUCGGAUCUGCACUUC	2.2
UUUACAAAUAUGCCCAAGACUUCUUGGUGGCUAUUGCAGAGCCAGUGUGCCGACCAACCCAUGUGCAUGAGUACAAACUAACUGCCUACU	-0.346
UUUGCUGUUGUUAACCAUCAAGGGACCUUGGAGAGUGGCCACUACACCAGCUUUAUCCGGCAGCACAAAGACCAGUGGUUCAAGUGUGAC	-1.43
UCCUGUGCUACACAUCGUAUGUACCGAAUCGGAAAAAAGGGAAAAAAGGGAAAAAAGGGGAAAGUAUUAUGUUACGCCGUUCGGAUCUGC	-1.34
GUCCUGUGCUACACAUCGUAUGUACCGAAUCGGUUUUUGGGGUUUUUGGUUUUUGGGGAAAGUAUUAUGUUACGCCGUUCGGAUCUGCAC	-1.04
UCCUGUGCUACACAUCGUAUGUACCGAAUCGGGGAAAAAGGGGAAAAAGGAAAAAGGGGAAAGUAUUAUGUUACGCCGUUCGGAUCUGCA	-1.12

Sample 4
Target: RING finger protein unkempt homolog, zinc fingers 1-6, GST-SBP tag (UNK, Homo sapiens, UniProt Q9C0B0, residues 30-357)
Technique: RNA Bind-n-Seq
Form: RNA
Medium: in vitro
Concentration: not given
Notes: RNA with constant flanks, ends assumed
Reference: input RNA pool
Direction: higher = stronger binding
All sequences stand within: GGGAGUUCUACAGUCCGACGAUC … CAACAGAGGAUUGAGCAUCA
Construct (chain): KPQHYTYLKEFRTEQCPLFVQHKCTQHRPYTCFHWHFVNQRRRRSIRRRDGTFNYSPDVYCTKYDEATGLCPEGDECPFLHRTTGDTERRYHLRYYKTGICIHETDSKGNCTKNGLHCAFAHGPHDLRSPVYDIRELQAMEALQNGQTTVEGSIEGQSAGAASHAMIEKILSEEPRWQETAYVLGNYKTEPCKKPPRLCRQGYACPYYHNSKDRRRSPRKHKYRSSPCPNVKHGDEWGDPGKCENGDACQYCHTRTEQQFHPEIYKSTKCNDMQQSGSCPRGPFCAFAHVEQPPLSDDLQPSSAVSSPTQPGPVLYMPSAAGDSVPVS
Oligonucleotide	bound/input enrichment [ratio]
UGUGUUAUUCGUUGUUUAGUGAAGAAGAGGGCUCUUAUUGCAGGAGGUGGUGCUCCAGAAACCGAGUUGGCCCUACGAUUAACUGAAUAUUCACGAACACUGAGUGGUAUGGAAUCCUAC	0.0873
GCCUAGUCUGUGUAAGCAAGAAGUAGGACCAAACUGAGGAAACUACUUGGUCCAUUCCGACCGCAGUUUAUUCAUACUCAGUGACCCGCAGGCCUCCACCUCUGCUUGAGGGAAGGGCUU	0.151
AAUAAUCUUCAAAAGUAUAUAGAGAUAUAUGUACAGAAGGUGAAUCCAAGUCGACUUCCUGCCGUUAUUGGAGGAUUACUUGAUGUUGACUGUUCUGAAGAUGUCAUAAAAAACUUGAUU	0.116
UUAGAUUCUGGGAAAUUCCGAGCCUUAGGAUGCAUCUUGUCUGAGUUGAAACAGAAGGGUGACCGAGUUGUAUUAUUCAGCCAGUUUACCAUGAUGCUGGAUAUACUAGAGGUUCUCUUA	0.235
UUUGUUGAAAUACUUGUUCCAGUUGCUGCUGCUGUUAAAAAUGAAGUAAAUGUUCCCUGCCUCCGAAAUUUUGUGGAAAGCCUGUAUGACACCACGCUGGAACUUUCUUCUCGAAAGAAG	0.474
GUGGCUUCAUUUUCUUUGAAUUGAAAUGAAAUACAGAUUUUUUUUUUGUAUGACUUUUGCCCGCUAUAACUACUUCAACUAAUAAGAAAGAACAGCUUUAAGCCAAAACCAAAGGUCAUU	0.212
UACAUUGUAGUCAGCUACUUUUCAGAGCUUUUCCAUUUGCUGUCUCAGGGAAAUCGUAAGACCCGGAAUCUUGUUUUGAAAGUAUUUUUGAAUAUGUCUGAAAAUCCCAAGGCAGCCAGA	0.306
CAGGGCGUGAUCAAGUACAUGGGGCCGGCAGGGAGUAAGACCCUGCAGAGUGUUGUGCUCCGCAAGAUGAACUUUGAGUCUUUCGUGAAAGAUCUUCUUCUGGUUCGCCAGUAUCGAGUU	0.0943

For quick reference, copied from above (sample 2):
Oligonucleotide	E-score
CAAGTAGG	-0.0863
AGCACCAG	0.074
ATTCATCA	-0.0224
GACCGTCA	-0.0757
